Experimental data collected from several papers.
Protocols differ between the studies behind these lines. Values joined by “and” are separate records of one study, mostly repeats; a detail may differ. Numbers after ± are the reported error.

Structure (SMILES) | assay | system | setting | tissue uptake
O=C([O-])CN1CCN(CC(=O)[O-])CCN(CC(=O)NC[C@H]2CC[C@H](C(=O)N[C@H](Cc3cnc4ccccc4c3)C(=O)NCCCC[C@H](NC(=O)N[C@@H](CCC(=O)O)C(=O)O)C(=O)O)CC2)CCN(CC(=O)[O-])CC1.[64Cu+2] | ex vivo gamma counting | 22Rv1 tumour-bearing mice, bone | intravenous, 0.74 MBq, 2 h post-injection | 4.12 %ID/g
Cc1cc(C)n(CCN(CCN)CCCCCCNC(=O)[C@@H](N)Cc2c[nH]c3ccccc23)n1.[99Tc+].[C-]#[O+].[C-]#[O+].[C-]#[O+] | – | BALB/c nude mice, A549 xenograft, brain | intravenous, 15 min | 0.1 ± 0.03 %IA/g
O=C(NCC1OC2CCC=CCCC2O1)c1ccc(COCCOCCOCC[18F])cc1 (centres unmarked) | – | healthy female BALB/c nude mice, bone | intravenous, 7.4 MBq per mouse, 30 min | 1.5 ± 0.1 %ID/g
Cc1cc(C)n(CCN(CCN)CCCCCCNC(=O)[C@@H](N)Cc2c[nH]cn2)n1.[99Tc+].[C-]#[O+].[C-]#[O+].[C-]#[O+] | – | BALB/c nude mice, MCF7 xenograft, liver | intravenous, 15 min | 27.1 ± 1.67 %IA/g
N#C[C@@H]1CCCN1C(=O)CNC(=O)c1ccnc2ccc(OCCCN3CCN(C(=O)CCc4ccc5c(c4)CN4CCN6CC(=O)[O][68Ga-]([O]C(=O)C4)([O]5)[O]c4ccc(CCC(=O)N5CCN(CCCOc7ccc8nccc(C(=O)NCC(=O)N9CCC[C@H]9C#N)c8c7)CC5)cc4C6)CC3)cc12 | – | BALB/c nude mice, U-87 MG xenograft, muscle | 1 h, blocking, with: DOTA-FAPI-04 40 nmol/mouse co-injected | 0.78 ± 0.66 %ID/g
CCCC[C@H](NC(=O)CNC(=O)CNC(=O)[C@H](CCCCNC(=O)C(C)c1ccc(CC(C)C)cc1)NC(=O)CN1CCN(CC(=O)O)CCN(CC(=O)O)CCN(CC(=O)O)CC1)C(=O)N[C@H]1CC(=O)NCCCC[C@@H](C(N)=O)NC(=O)[C@H](Cc2c[nH]c3ccccc23)NC(=O)[C@H](CCCNC(=N)N)NC(=O)[C@@H](Cc2ccccc2)NC(=O)[C@H](Cc2c[nH]cn2)NC1=O (some centres unmarked) [lutetium-177 labelled] | – | C57 mice, tumour-bearing, spleen | 2 h | 1.71 ± 0.47 %ID/g
CCCC[C@H](NC(=O)CCCCCCCNC(=O)CN1CCN(CC(=O)O)CCN(CC(=O)O)CC1)C(=O)N[C@H]1CC(=O)NCCCC[C@@H](C(N)=O)NC(=O)[C@H](Cc2c[nH]c3ccccc23)NC(=O)[C@H](CCCNC(=N)N)NC(=O)[C@@H](Cc2ccccc2)NC(=O)[C@H](Cc2c[nH]cn2)NC1=O [fluorine-18 labelled] | – | C57 mice, B16/F10 melanoma, spleen | intravenous, 1 h, with: NDP-MSH 10 µg | 0.32 ± 0.17 %ID/g
CC(C)C[C@H](NC(=O)[C@@H](CCCCNC(=O)[C@@H](Cc1ccccc1)NC(=O)CCCCCCCNC(=O)CN1CCN(CC(=O)O)CCN(CC(=O)O)CCN(CC(=O)O)CC1)NC(=O)[C@H](Cc1ccc(O)cc1)NC(=O)[C@H](CO)NC(=O)[C@H](Cc1c[nH]c2ccccc12)NC(=O)[C@H](Cc1c[nH]cn1)NC(=O)[C@@H]1CCC(=O)N1)C(=O)N[C@@H](CCCNC(=N)N)C(=O)N1CCC[C@H]1C(=O)NCC(N)=O [indium-111 labelled] | biodistribution | male athymic nude mice, DU-145 prostate cancer xenograft, heart | intravenous, 0.037 MBq, 0.5 h post-injection | 0.65 ± 0.11 %ID/g
O=C(NCC1OC2CCC=CCCC2O1)c1ccc([18F])nc1 (centres unmarked) | – | healthy female BALB/c nude mice, small intestine | intravenous, 7.4 MBq per mouse, 2 min | 9.9 ± 1.2 %ID/g
CCCC[C@H](NC(=O)CNC(=O)CNC(=O)[C@H](CCCCNC(=O)[C@H](CCN)NC(=O)C(C)c1ccc(CC(C)C)cc1)NC(=O)CN1CCN(CC(=O)O)CCN(CC(=O)O)CCN(CC(=O)O)CC1)C(=O)N[C@H]1CC(=O)NCCCC[C@@H](C(N)=O)NC(=O)[C@H](Cc2c[nH]c3ccccc23)NC(=O)[C@H](CCCNC(=N)N)NC(=O)[C@@H](Cc2ccccc2)NC(=O)[C@H](Cc2c[nH]cn2)NC1=O (some centres unmarked) [lutetium-177 labelled] | – | C57 mice, tumour-bearing, liver | 2 h | 46.4 ± 3.28 %ID/g
COc1ccc(Nc2nc(Nc3ccc(OCCOCCOCC[18F])cc3)ncc2Br)cc1 | – | ICR mice, S180 tumour-bearing, lung | intravenous, 370 kBq, 120 min | 3.53 ± 0.32 %ID/g
CCCC[C@H](NC(=O)COCCOCCNC(=O)CN1CCN(CC(=O)O)CCN(CC(=O)O)CC1)C(=O)N[C@H]1CC(=O)NCCCC[C@@H](C(N)=O)NC(=O)[C@H](Cc2c[nH]c3ccccc23)NC(=O)[C@H](CCCNC(=N)N)NC(=O)[C@@H](Cc2ccccc2)NC(=O)[C@H](Cc2c[nH]cn2)NC1=O [fluorine-18 labelled] | – | C57 mice, B16/F10 melanoma, pancreas | intravenous, 1 h, with: NDP-MSH 10 µg | 0.01 ± 0.01 %ID/g
CCCC[C@H](NC(=O)CNC(=O)CNC(=O)[C@H](CCCCNC(=O)[C@H](CC(=O)O)NC(=O)C(C)c1ccc(CC(C)C)cc1)NC(=O)CN1CCN(CC(=O)O)CCN(CC(=O)O)CCN(CC(=O)O)CC1)C(=O)N[C@H]1CC(=O)NCCCC[C@@H](C(N)=O)NC(=O)[C@H](Cc2c[nH]c3ccccc23)NC(=O)[C@H](CCCNC(=N)N)NC(=O)[C@@H](Cc2ccccc2)NC(=O)[C@H](Cc2c[nH]cn2)NC1=O (some centres unmarked) [lutetium-177 labelled] | – | C57 mice, tumour-bearing, skin | intravenous, 0.037 MBq, 0.5 h | 4.37 ± 0.57 %ID/g
O=C(O)CCCOc1ccc([18F])cc1-c1cc(-c2ccccc2C(F)(F)F)n(-c2ccccc2)n1 | – | mice, bladder and urine | intravenous, 360 min | 0.73 ± 0.24 %ID/g
COc1ccc(Nc2nc(Nc3ccc(OCCOCC[18F])cc3)ncc2Br)cc1 | – | ICR mice, S180 tumour-bearing, liver | intravenous, 370 kBq, 30 min | 2.59 ± 0.2 %ID/g
N#C[C@@H]1CCCN1C(=O)CNC(=O)c1ccnc2ccc(OCCCN3CCN(C(=O)CCc4ccc(O)c(CN5CCN6CC(=O)[O][Al-]([18F])([O]C(=O)C5)[O]c5ccc(CCC(=O)N7CCN(CCCOc8ccc9nccc(C(=O)NCC(=O)N%10CCC[C@H]%10C#N)c9c8)CC7)cc5C6)c4)CC3)cc12 (some centres unmarked) | – | BALB/c nude mice, U-87 MG xenograft, brain | 1 h | 0.16 ± 0.02 %ID/g
COc1ccc2c(c1)C(C)(C)C(/C=C/C1=C(Oc3ccc(C(=O)NCCCCOc4cc(CN(Cc5ccccn5)Cc5ccccn5)cc(CN(Cc5ccccn5)Cc5ccccn5)c4)cc3)C(=C/C=C3/N(CCCCS(=O)(=O)[O-])c4ccc(OC)cc4C3(C)C)CCC1)=[N+]2CCCCS(=O)(=O)[O-].O=[N+]([O-])[O-].O=[N+]([O-])[O-].[99Tc+].[C-]#[O+].[C-]#[O+].[C-]#[O+].[Zn+2] | – | healthy BALB/c mice, blood | 12 h | 0.69 %ID/g and 0.46 %ID/g and 0.88 %ID/g and 0.45 %ID/g

For quick reference, copied from above:
Structure (SMILES) | assay | system | setting | tissue uptake
O=C(NCC1OC2CCC=CCCC2O1)c1ccc([18F])nc1 (centres unmarked) | – | healthy female BALB/c nude mice, small intestine | intravenous, 7.4 MBq per mouse, 2 min | 9.9 ± 1.2 %ID/g
CCCC[C@H](NC(=O)CNC(=O)CNC(=O)[C@H](CCCCNC(=O)[C@H](CCN)NC(=O)C(C)c1ccc(CC(C)C)cc1)NC(=O)CN1CCN(CC(=O)O)CCN(CC(=O)O)CCN(CC(=O)O)CC1)C(=O)N[C@H]1CC(=O)NCCCC[C@@H](C(N)=O)NC(=O)[C@H](Cc2c[nH]c3ccccc23)NC(=O)[C@H](CCCNC(=N)N)NC(=O)[C@@H](Cc2ccccc2)NC(=O)[C@H](Cc2c[nH]cn2)NC1=O (some centres unmarked) [lutetium-177 labelled] | – | C57 mice, tumour-bearing, liver | 2 h | 46.4 ± 3.28 %ID/g
